Assay results pooled from the literature.
Values joined by “and” are separate records of one study, mostly repeats; a detail may differ.
Technique: steady-state kinetics
B1: UGT1A9 (Homo sapiens, UniProt O60656); chain GKLLVVPMDGSHWFTMRSVVEKLILRGHEVVVVMPEVSWQLGRSLNCTVKTYSTSYTLEDLDREFKAFAHAQWKAQVRSIYSLLMGSYNDIFDLFFSNCRSLFKDKKLVEYLKESSFDAVFLDPFDNCGLIVAKYFSLPSVVFARGILCHYLEEGAQCPAPLSYVPRILLGFSDAMTFKERVRNHIMHLEEHLLCHRFFKNALEIASEILQTPVTEYDLYSHTSIWLLRTDFVLDYPKPVMPNMIFIGGINCHQGKPLPMEFEAYINASGEHGIVVFSLGSMVSEIPEKKAMAIADALGKIPQTVLWRYTGTRPSNLANNTILVKWLPQNDLLGHPMTRAFITHAGSHGVYESICNGVPMVMMPLFGDQMDNAKRMETKGAGVTLNVLEMTSEDLENALKAVINDKSYKENIMRLSSLHKDRPVEPLDLAVFWVEFVMRHKGAPHLRPAAHDLTWYQYHSLDVIGFLLAVVLTVAFITFKCCAYGYRKCLGKKGRVKKAHKSKTH
B2: enzyme (Phocaeicola vulgatus, UniProt A6KWY5); chain MKAIQITAPSEMKVVDIEKPVLEPGEVLVKIKYVGFCGSDLNTFLGRNPMVKLPVIPGHEVGAVIEAVGKDVPDSLKPGMSVTVNPYTNCGKCASCRNGRVNACEHNETLGVQRNGAMCEYIALPWSKIIPAHRIPPRDCALIEPMSVGFHAVSRAQVTDIDIVMVIGCGMIGMGAIVRSALRGATVIAVDLDDEKLELAKRIGAHHTINSMTENVHECLTKITEGLGPDVVIEAVGSPATYVMAVNEVGFTGRVVCIGYAKSEVSFQTKYFVQKELDIRGSRNALPTDFRAVIRYMEQGTCPKNELISKVVKPEAAIQAMKEWAAAPGKVFRILVEFD
B3: enzyme (Thermobifida fusca, UniProt Q47RK4); chain MTDVYILDAVRTPFGRYGGALSGIRPDDLAAHVLRALAERSPGLDPAAVDDVFFGDANGAGEDNRNVARMAALLAGWPTSVPGVTLNRLCGSGMESVIAANRAIAVGDASLAVAGGVESMSRAPWVLPKPAQGFPTGHETLYSTTLGWRMVNPAMPEQWTVSLGESTEQVAATYGISRAEQDAFALRSHERAARAWAEGVFDAEITQIPGAELERDESIRETSAEKLAALKPAFRPDGTITAGNASPLNDGAAALLIGDAAAAERVGREPLARIVSRGVAAVDPDVFGIGPVQAAEIALRRAGIGWDDLSVVELNEAFAAQSLACLKLWPDLDPEIVNPNGGAIAIGHPLGASGARIVGTLAHELHRRGGGWGLAAICIGVGQGLAVVLHR
B4: acryloyl-CoA reductase (Metallosphaera sedula, UniProt A4YGN2); chain MKAVVVKGHKQGYEVREVQDPKPASGEVIIKVRRAALCYRDLLQLQGFYPRMKYPVVLGHEVVGEILEVGEGVTGFSPGDRVISLLYAPDGTCHYCRQGEEAYCHSRLGYSEELDGFFSEMAKVKVTSLVKVPTRASDEGAVMVPCVTGMVYRGLRRANLREGETVLVTGASGGVGIHALQVAKAMGARVVGVTTSEEKASIVGKYADRVIVGSKFSEEAKKEDINVVIDTVGTPTFDESLKSLWMGGRIVQIGNVDPTQSYQLRLGYTILKDIAIIGHASATRRDAEGALKLTAEGKIRPVVAGTVHLEEIDKGYEMLKDKHKVGKVLLTT
B5: protein F222A (Planktothrix agardhii, UniProt F5B6Z0); chain MIVNVIQKDRLKEQKLQFIRNHQQAFDVEPIYPLPLFEDFVTSIEGDCSLEASCKIESDKLIASRFLLFFEDKTQEWQKYLHQSLTFFGLVENRVGVKINYSLLQQFLGSSFDFSKVTVLSAGIDLRNNLAESSLKMHIRIKDYPEKLDKAFALSDGAADGNYLKDFVNLIGFDFYFNGKSEIEIYAEVQEDDFFKPEINNLVWQHFPKTALQPLKASSLFATGLSKANNNPVLYYHLKNRQDLTNYFKLNDTAQRVHSFYQHQDILPYMWVGTAQKELEKTRIENIRLYYYKSFKMESN
B6: GDP-perosamine synthase (Caulobacter vibrioides, UniProt Q9A9H3); chain MSDLPRISVAAPRLDGNERDYVLECMDTTWISSVGRFIVEFEKAFADYCGVKHAIACNNGTTALHLALVAMGIGPGDEVIVPSLTYIASANSVTYCGATPVLVDNDPRTFNLDAAKLEALITPRTKAIMPVHLYGQICDMDPILEVARRHNLLVIEDAAEAVGATYRGKKSGSLGDCATFSFFGNKIITTGEGGMITTNDDDLAAKMRLLRGQGMDPNRRYWFPIVGFNYRMTNIQAAIGLAQLERVDEHLAARERVVGWYEQKLARLGNRVTKPHVALTGRHVFWMYTVRLGEGLSTTRDQVIKDLDALGIESRPVFHPMHIMPPYAHLATDDLKIAEACGVDGLNLPTHAGLTEADIDRVIAALDQVLV
B7: enzyme (Halalkalibacterium halodurans, UniProt Q9KCN8); chain MLNVTQLQEATTFIQQQIETKPTIGLILGSGLGILADEIEQPVKVPYSDIPHFPVSTVQGHAGQLVIGMLEGKQVIAMQGRFHFYEGYSLEVVTFPVRVMKALGVEQIIVTNAAGGVNESFEAGDLMIIRDHINNMAQNPLIGPNDEAFGVRFPDMSNAYSERLRTLAKEKGNTLNLKLQEGVYVANTGPVYETPAEVRMIRKLGGDAVGMSTVPEVIVARHAGLEVLGISCISNMAAGILPQPLSHDEVIETTERVRQDFLNLVKAIVKDM
B8: CYP26A1 (Homo sapiens, UniProt O43174); chain MGLPALLASALCTFVLPLLLFLAAIKLWDLYCVSGRDRSCALPLPPGTMGFPFFGETLQMVLQRRKFLQMKRRKYGFIYKTHLFGRPTVRVMGADNVRRILLGEHRLVSVHWPASVRTILGSGCLSNLHDSSHKQRKKVIMRAFSREALECYVPVITEEVGSSLEQWLSCGERGLLVYPEVKRLMFRIAMRILLGCEPQLAGDGDSEQQLVEAFEEMTRNLFSLPIDVPFSGLYRGMKARNLIHARIEQNIRAKICGLRASEAGQGCKDALQLLIEHSWERGERLDMQALKQSSTELLFGGHETTASAATSLITYLGLYPHVLQKVREELKSKGLLCKSNQDNKLDMEILEQLKYIGCVIKETLRLNPPVPGGFRVALKTFELNGYQIPKGWNVIYSICDTHDVAEIFTNKEEFNPDRFMLPHPEDASRFSFIPFGGGLRSCVGKEFAKILLKIFTVELARHCDWQLLNGPPTMKTSPTVYPVDNLPARFTHFHGEI
B9: protein (Adiantum capillus-veneris, UniProt A0A4Y6I289); chain MTDAVENKQVEFGALEVEGIKFAPSVAALGSTKQLVLGGAGFRGLEISGNLVKFTAIGIYVDEAIIPHLSPKLHGKSIEELCNNELLFEEVLAAPFEKLVRVVFLLPLTGPQYSEKVVERMGLLPNPGIKEESTKQFLEIFKPENFPPRTSLICSFTEEALKVAFMKTDDFPEDADAVIEDKWLARAFLASIIGKDGVSPLAKLSFAERMSRCL
B10: protein (Phaseolus vulgaris, UniProt V7ASW7); chain MALKDAQDQQDPRLERISSAIRVIPDFPKPGILFQDITTLLLDPKAFKDTIDLFVERYRDQNINVVAGVEARGFIFGPPIALAIGAKFVPMRKPNKLPGEVISEEYSLEYGTDKIEMHVGAVQPGERALVIDDLIATGGTLDAAIKLLERVGVDVVECACLIELPELKGRDRLGDKPLFVLVKVTA
B11: speck Y220A (Drosophila melanogaster, UniProt Q94521); chain MEDALTVSGKPAACPVDQDCPYTIELIQPEDGEAVIAMLKTFFFKDEPLNTFLDLGECKELEKYSLKPLPDNCSYKAVNKKGEIIGVFLNGLMRRPSPDDVPEKAADSCEHPKFKKILSLMDHVEEQFNIFDVYPDEELILDGKILSVDTNYRGLGIAGRLTERAYEYMRENGINVYHVLCSSHASARVMEKLGFHEVFRMQFADYKPQGEVVFKPAAPHVGIQVMAKEVGPAKAAQTKL
B12: SUOX P168A (Homo sapiens, UniProt P51687); chain ESTHIYTKEEVSSHTSPETGIWVTLGSEVFDVTEFVDLHPGGPSKLMLAAGGPLEPFWALYAVHNQSHVRELLAQYKIGELNPEDKVAATVETSDPYADDPVRHPALKVNSQRPFNAEPPPELLTENYITPNPIFFTRNHLPVPNLDPDTYRLHVVGAPGGQSLSLSLDDLHNFPRYEITVTLQCAGNRRSEMTQVKEVKGLEWRTGAISTARWAGARLCDVLAQAGHQLCETEAHVCFEGLDSDPTGTAYGASIPLARAMDPEAEVLLAYEMNGQPLPRDHGFPVRVVVPGVVGARHVKWLGRVSVQPEESYSHWQRRDYKGFSPSVDWETVDFDSAPSIQELPVQSAITEPRDGETVESGEVTIKGYAWSGGGRAVIRVDVSLDGGLTWQVAKLDGEEQRPRKAWAWRLWQLKAPVPAGQKELNIVCKAVDDGYNVQPDTVAPIWNLRGVLSNAWHRVHVYVSP
B13: sacB Y196F (Priestia megaterium, UniProt D5DC07); chain KGNDSKDFNNSYGISHITRDNMVKIPQQQNSDQFKVPAFDESTIKNIASAKGKNASGNTIDLDVWDSWPLQNADGTVATYHGYQIVFALAGDPKDSNDTSVYLFYKKAGDKSIDSWKNAGRVFKDSDKFVPNDPHLKNQTQEWSGSGTLTKDGKVRLFYTDYSGKQFGKQTLTTAQVNMSQPNDNTLKVDGVEDYKSIFDGDGKIYQTVQQFIDEGGYDTGDNHTLRDPHYIEDNGHKYLVFEANTGTEDGYQGEDSLYNRAYYGGNNPFFQSEKKKLLEGSNKEKASLANGALGIIELNDDYTLKKVMKPLITSNTVTDEIERANIFKKDGKWYLFTDSRGSKMTIDGIGQDDVYMLGYVSNTLTGKYKPLNDTGLVLHMDLDPNDKTFTYSHFAVPQTKGDNVVITSYMTNRGFYEDNHSTFAPSFLVNIDGSKTSVVKDRVLEQGQLTVDED
B14: ycjR (Escherichia coli, UniProt P76044); chain MKIGTQNQAFFPENILEKFRYIKEMGFDGFEIDGKLLVNNIEEVKAAIKETGLPVTTACGGYDGWIGDFIEERRLNGLKQIERILEALAEVGGKGIVVPAAWGMFTFRLPPMTSPRSLDGDRKMVSDSLRVLEQVAARTGTVVYLEPLNRYQDHMINTLADARRYIVENDLKHVQIIGDFYHMNIEEDNLAQALHDNRDLLGHVHIADNHRYQPGSGTLDFHALFEQLRADNYQGYVVYEGRIRAEDPAQAYRDSLAWLRTC
Chain of UniProt Q9HJT3 (whole entry, looked up): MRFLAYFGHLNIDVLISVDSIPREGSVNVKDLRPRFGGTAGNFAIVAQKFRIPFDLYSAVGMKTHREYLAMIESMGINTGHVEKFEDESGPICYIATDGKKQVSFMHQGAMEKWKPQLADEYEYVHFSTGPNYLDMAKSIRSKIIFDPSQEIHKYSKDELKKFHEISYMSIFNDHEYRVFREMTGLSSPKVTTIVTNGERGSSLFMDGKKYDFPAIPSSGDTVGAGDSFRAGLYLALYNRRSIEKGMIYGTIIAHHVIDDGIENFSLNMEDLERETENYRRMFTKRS

| Molecule | substrate | setting | Km |
| --- | --- | --- | --- |
| B1 (UGT1A9) | COc1ccc(-c2oc3ccc(OC)cc3c(=O)c2O)cc1 | pH 7.4, 37 °C | 0.043 µM |
| protein (UniProt M4ZR24) | NC[C@H]1O[C@@H](n2ccc(=O)[nH]c2=O)C[C@@H]1O | phosphorolysis, single substrate, with: phosphate | 870 µM |
| B2 (enzyme) | O=C(O)[C@@H](O)[C@H](O)[C@H](O)C(=O)CO | pH 7, 30 °C | 550 µM |
| B3 (enzyme) | CC(C)(COP(=O)(O)OP(=O)(O)OC[C@H]1O[C@@H](n2cnc3c(N)ncnc32)[C@H](O)[C@@H]1OP(=O)(O)O)[C@@H](O)C(=O)NCCC(=O)NCCSC(=O)CC(=O)O | pH 7.4, 37 °C | 3320 µM |
| B4 (acryloyl-CoA reductase) | C=CC(=O)SCCNC(=O)CCNC(=O)[C@H](O)C(C)(C)COP(=O)(O)OP(=O)(O)OC[C@H]1O[C@@H](n2cnc3c(N)ncnc32)[C@H](O)[C@@H]1OP(=O)(O)O | pH 6.5, 65 °C, substrate made in situ, with: ATP, CoA, NADPH | 9.1 µM |
| B5 (protein F222A) | CC(C)=CCOP(=O)(O)OP(=O)(O)O | with: tri-Tyr peptide acceptor | 1100 µM |
| B6 (GDP-perosamine synthase) | C[C@H]1O[C@H](OP(=O)(O)OP(=O)(O)OC[C@H]2O[C@@H](n3cnc4c(=O)[nH]c(N)nc43)[C@H](O)[C@@H]2O)[C@@H](O)[C@@H](O)C1=O | pH 7.5, room temperature, NaCl 110 mM, ping-pong fit, with: L-glutamate cosubstrate; 100 µM PLP | 13 µM |
| B7 (enzyme) | Nc1nc2c(ncn2[C@@H]2O[C@H](CO)[C@@H](O)[C@H]2O)c(=O)[nH]1 | pH 8 | 206 µM |
| TaNK (Thermoplasma acidophilum, UniProt Q9HJT3) | Nc1ncnc2c1ncn2[C@@H]1O[C@H](COP(=O)(O)OP(=O)(O)OP(=O)(O)O)[C@@H](O)[C@H]1O | pH 8, 22 °C, apparent, with: inosine, Mg2+ | 46.9 µM |
| B8 (CYP26A1) | CC1=C(/C=C/C(C)=C/C=C/C(C)=C/C(=O)O)C(C)(C)CCC1 | 37 °C, not purified | 0.0501 µM and 0.0489 µM |
| B9 (protein) | O=C(/C=C/c1ccc(O)cc1)c1c(O)cc(O)cc1O | – | 98.2 µM |
| AphC (Rhodococcus jostii, UniProt Q0S9X1) | Oc1ccccc1O | pH 8, 25 °C, apparent, with: O2 | 47 µM |
| B10 (protein) | O=P(O)(O)OC[C@H]1O[C@H](OP(=O)(O)OP(=O)(O)O)[C@H](O)[C@@H]1O | pH 7.5, 37 °C, MgCl2 5 mM, with: adenine 1 mM | 940 µM |
| B11 (speck Y220A) | CC(=O)SCCNC(=O)CCNC(=O)[C@H](O)C(C)(C)COP(=O)(O)OP(=O)(O)OC[C@H]1O[C@@H](n2cnc3c(N)ncnc32)[C@H](O)[C@@H]1OP(=O)(O)O | pH 7.2, 30 °C | 400 µM |
| B12 (SUOX P168A) | O=S(O)O | pH 8, 25 °C, with: oxidized cyt c 400 µM | 33 µM |
| B13 (sacB Y196F) | OC[C@H]1O[C@@](CO)(O[C@H]2O[C@H](CO)[C@@H](O)[C@H](O)[C@H]2O)[C@@H](O)[C@@H]1O | pH 6.9 | 29800 µM |
| B14 (ycjR) | CO[C@@H]1O[C@H](CO)[C@@H](O)C(=O)[C@H]1O | pH 8, 30 °C, with: MnCl2 0.5 mM, NADH 0.3 mM | 31000 µM |

Excerpt of the above:
| Molecule | substrate | setting | Km |
| --- | --- | --- | --- |
| B8 (CYP26A1) | CC1=C(/C=C/C(C)=C/C=C/C(C)=C/C(=O)O)C(C)(C)CCC1 | 37 °C, not purified | 0.0501 µM and 0.0489 µM |
| B9 (protein) | O=C(/C=C/c1ccc(O)cc1)c1c(O)cc(O)cc1O | – | 98.2 µM |
